{"data": "Measurements from different studies", "note": "Each numbered part is a random draw from the data of one study; scales do not carry over between parts. “And” joins repeats or separate records; there may be more than shown.", "chain of UniProt P61075 (whole entry, looked up)": "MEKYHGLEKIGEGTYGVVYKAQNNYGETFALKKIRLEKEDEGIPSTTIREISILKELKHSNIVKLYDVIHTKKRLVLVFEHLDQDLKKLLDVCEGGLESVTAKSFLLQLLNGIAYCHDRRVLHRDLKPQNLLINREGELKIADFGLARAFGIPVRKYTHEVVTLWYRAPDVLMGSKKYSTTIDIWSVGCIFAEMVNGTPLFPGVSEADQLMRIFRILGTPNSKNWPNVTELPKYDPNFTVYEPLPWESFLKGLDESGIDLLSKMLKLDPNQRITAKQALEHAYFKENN", "chain of UniProt Q9UKI8 (whole entry, looked up)": "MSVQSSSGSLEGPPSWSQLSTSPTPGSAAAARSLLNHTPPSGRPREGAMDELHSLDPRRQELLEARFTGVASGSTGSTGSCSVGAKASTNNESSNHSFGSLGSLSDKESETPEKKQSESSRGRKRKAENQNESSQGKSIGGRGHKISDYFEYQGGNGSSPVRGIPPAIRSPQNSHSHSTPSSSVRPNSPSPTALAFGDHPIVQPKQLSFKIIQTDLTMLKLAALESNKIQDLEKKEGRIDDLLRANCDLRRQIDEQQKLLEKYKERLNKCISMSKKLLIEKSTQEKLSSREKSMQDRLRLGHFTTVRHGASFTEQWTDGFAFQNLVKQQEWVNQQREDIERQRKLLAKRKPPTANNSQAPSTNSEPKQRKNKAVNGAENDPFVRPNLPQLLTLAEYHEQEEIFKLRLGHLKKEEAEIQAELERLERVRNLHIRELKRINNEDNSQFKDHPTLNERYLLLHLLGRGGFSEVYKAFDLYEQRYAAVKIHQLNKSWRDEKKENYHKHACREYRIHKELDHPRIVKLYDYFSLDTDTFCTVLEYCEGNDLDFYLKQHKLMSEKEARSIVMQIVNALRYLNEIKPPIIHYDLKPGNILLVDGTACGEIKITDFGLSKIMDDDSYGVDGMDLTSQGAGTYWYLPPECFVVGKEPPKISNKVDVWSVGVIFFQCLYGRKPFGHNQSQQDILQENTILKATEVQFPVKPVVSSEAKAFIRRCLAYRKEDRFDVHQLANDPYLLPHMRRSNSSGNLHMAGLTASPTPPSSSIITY", "chain of UniProt P62344 (whole entry, looked up)": "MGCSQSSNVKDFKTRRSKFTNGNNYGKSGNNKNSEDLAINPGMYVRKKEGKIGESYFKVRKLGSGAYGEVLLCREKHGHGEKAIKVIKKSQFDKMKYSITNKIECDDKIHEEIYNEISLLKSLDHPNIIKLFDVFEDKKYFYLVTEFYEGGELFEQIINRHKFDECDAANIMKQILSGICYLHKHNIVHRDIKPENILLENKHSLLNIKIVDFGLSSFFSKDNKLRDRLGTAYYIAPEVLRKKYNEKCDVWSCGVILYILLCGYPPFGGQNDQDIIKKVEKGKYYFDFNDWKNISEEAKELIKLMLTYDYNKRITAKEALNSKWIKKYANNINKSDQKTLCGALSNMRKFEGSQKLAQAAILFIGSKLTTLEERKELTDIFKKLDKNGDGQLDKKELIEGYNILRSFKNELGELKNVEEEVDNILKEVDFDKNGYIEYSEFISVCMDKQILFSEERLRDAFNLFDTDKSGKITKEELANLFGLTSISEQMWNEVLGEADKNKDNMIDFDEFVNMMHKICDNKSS", "chain of UniProt P28335 (whole entry, looked up)": "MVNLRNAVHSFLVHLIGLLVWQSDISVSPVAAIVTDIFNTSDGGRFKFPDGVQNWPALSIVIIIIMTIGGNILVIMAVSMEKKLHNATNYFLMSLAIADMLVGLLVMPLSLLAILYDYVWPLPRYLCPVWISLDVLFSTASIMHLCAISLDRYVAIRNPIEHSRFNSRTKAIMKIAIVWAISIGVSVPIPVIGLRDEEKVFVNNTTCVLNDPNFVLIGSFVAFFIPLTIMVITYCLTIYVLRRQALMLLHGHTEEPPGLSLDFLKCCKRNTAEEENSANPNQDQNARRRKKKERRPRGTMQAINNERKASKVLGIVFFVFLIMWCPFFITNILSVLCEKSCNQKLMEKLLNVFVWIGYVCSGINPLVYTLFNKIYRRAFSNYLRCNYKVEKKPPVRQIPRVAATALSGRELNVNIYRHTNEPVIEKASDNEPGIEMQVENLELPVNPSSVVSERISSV"}
{"data": "Set 1", "SMILES": "O=C1CCC(N2Cc3c(ccc4c3OCC43CCN(Cc4ccccc4)CC3)C2=O)C(=O)N1 (stereo not shown)", "medium": "plasma"}
{"test system": "Sprague Dawley rat, male", "conditions": "oral, 3 mg/kg, 6 h", "plasma concentration": "115 ng/mL and 106 ng/mL"}
{"test system": "rat Sprague Dawley male", "conditions": "intravenous, 1 mg/kg, 1 h", "plasma concentration": "202 ng/mL and 169 ng/mL"}
{"test system": "male ICR mice", "conditions": "oral, 3 mg/kg, 4 h", "plasma concentration": "75.7 ng/mL"}
{"test system": "Sprague Dawley rat, male", "conditions": "intravenous, 1 mg/kg, 1 h", "plasma concentration": "173 ng/mL"}
{"test system": "male Sprague Dawley rats", "conditions": "oral, 3 mg/kg, 1 h", "plasma concentration": "129 ng/mL"}
{"test system": "male Sprague Dawley rats", "conditions": "intravenous, 1 mg/kg, 4 h", "plasma concentration": "61.1 ng/mL"}
{"test system": "male ICR mice", "conditions": "intravenous, 1 mg/kg, 1 h", "plasma concentration": "118 ng/mL and 113 ng/mL"}
{"test system": "male Sprague Dawley rats", "conditions": "oral, 3 mg/kg, 0.5 h", "plasma concentration": "68.3 ng/mL"}
{"test system": "ICR mouse, male", "conditions": "oral, 3 mg/kg, 4 h", "plasma concentration": "80.8 ng/mL and 146 ng/mL"}
{"test system": "male ICR mice", "conditions": "intravenous, 1 mg/kg, 0.5 h", "plasma concentration": "177 ng/mL"}
{"test system": "Sprague Dawley rat, male", "conditions": "intravenous, 1 mg/kg, 0.083 h", "plasma concentration": "371 ng/mL and 379 ng/mL"}
{"test system": "ICR mouse, male", "conditions": "intravenous, 1 mg/kg, 0.25 h", "plasma concentration": "224 ng/mL and 235 ng/mL"}
{"test system": "ICR mouse, male", "conditions": "intravenous, 1 mg/kg, 0.083 h", "plasma concentration": "314 ng/mL and 263 ng/mL"}
{"test system": "ICR mouse, male", "conditions": "oral, 3 mg/kg, 2 h", "plasma concentration": "280 ng/mL and 231 ng/mL"}
{"test system": "ICR mouse, male", "conditions": "oral, 3 mg/kg, 0.25 h", "plasma concentration": "345 ng/mL and 196 ng/mL"}
{"data": "Set 2", "cell line": "HEK-293T", "effect on": "pseudovirus infection", "method": "FDA-approved drug library counter-screen", "organism": "VSV pseudotyped with VSV-G", "concentration": "10 µM", "time": "16 h", "relative to": "vehicle-treated"}
{"Compound": "CC(C)(C)NC(=O)[C@H]1CC[C@H]2[C@@H]3CC[C@H]4NC(=O)C=C[C@]4(C)[C@H]3CC[C@]12C", "GFP-positive cells [%]": 81.5}
{"Compound": "CC(=O)N[C@@H](CS)C(=O)O", "GFP-positive cells [%]": 87.9}
{"Compound": "CC(=O)O[C@H]1Cc2ccccc2N(C(N)=O)c2ccccc21", "GFP-positive cells [%]": 103}
{"Compound": "CNCC[C@@H](Oc1ccccc1C)c1ccccc1", "GFP-positive cells [%]": 101}
{"Compound": "NCCCC(N)(C(=O)O)C(F)F (stereo not shown)", "GFP-positive cells [%]": 106}
{"Compound": "C#C[C@]1(O)CC[C@H]2[C@@H]3CCC4=Cc5oncc5C[C@]4(C)[C@H]3CC[C@@]21C", "GFP-positive cells [%]": 146}
{"Compound": "CCc1cc2c(cc1N1CCC(N3CCOCC3)CC1)C(C)(C)c1[nH]c3cc(C#N)ccc3c1C2=O", "GFP-positive cells [%]": 116}
{"Compound": "CC(C)OC(=O)CCC/C=C\\C[C@@H]1[C@@H](CC[C@@H](O)CCc2ccccc2)[C@H](O)C[C@@H]1O", "GFP-positive cells [%]": 136}
{"Compound": "CC(=O)O[C@]1(C(C)=O)CC[C@H]2[C@@H]3CCC4=CC(=O)CCC4=C3[C@@H](c3ccc(N(C)C)cc3)C[C@@]21C", "GFP-positive cells [%]": 123}
{"Compound": "OC[C@H]1O[C@@H](O[C@@H]2[C@@H](CO)OC(O)(CO)[C@H]2O)[C@H](O)[C@@H](O)[C@H]1O (mixture of isomers)", "GFP-positive cells [%]": 94.2}
{"Compound": "c1ccc(CN(CC2=NCCN2)c2ccccc2)cc1", "GFP-positive cells [%]": 112}
{"Compound": "Cc1[nH]cnc1CN1CCc2c(c3ccccc3n2C)C1=O", "GFP-positive cells [%]": 96}
{"Compound": "CCC(=O)O[C@H]1CC[C@H]2[C@@H]3CCC4=CC(=O)CC[C@]4(C)[C@H]3CC[C@]12C", "GFP-positive cells [%]": 115}
{"Compound": "COc1ccccc1OCC(O)CO (stereo not shown)", "GFP-positive cells [%]": 94.4}
{"Compound": "COc1c(C)c2c(c(O)c1C/C=C(\\C)CCC(=O)O)C(=O)OC2", "GFP-positive cells [%]": 1.73}
{"Compound": "CO/N=C(\\C(=O)N[C@@H]1C(=O)N2C(C(=O)O)=C(COC(C)=O)CS[C@H]12)c1csc(N)n1", "GFP-positive cells [%]": 84.5}
{"Compound": "CCOC(=O)c1ncn2c1CN(C)C(=O)c1cc(F)ccc1-2", "GFP-positive cells [%]": 104}
{"data": "Set 3", "cell line": "HaCaT", "concentration": "100 µM", "time": "18 h"}
{"Structure (SMILES)": "CC(C)(C)NCC(O)c1ccccc1Cl (stereo not shown)", "viability [%]": 96.5}
{"Structure (SMILES)": "Nc1ccncc1", "viability [%]": 108}
{"Structure (SMILES)": "O=c1[nH]c2ccccc2n1C1CCN(CCCC(c2ccc(F)cc2)c2ccc(F)cc2)CC1", "viability [%]": 18.1}
{"Structure (SMILES)": "C[C@]12CCC(=O)C(O)=C1CC[C@@H]1[C@@H]2CC[C@]2(C)C(=O)CC[C@@H]12", "viability [%]": 74.5}
{"Structure (SMILES)": "CC(C)C[C@H](CN)CC(=O)O", "viability [%]": 113}
{"Structure (SMILES)": "COc1ccc2c(c1)[C@]13CCCC[C@@H]1[C@H](C2)N(C)CC3", "viability [%]": 98.1}
{"Structure (SMILES)": "COc1ccc(C(=O)N2CCCC2=O)cc1", "viability [%]": 107}
{"data": "Single results of other studies"}
{"SMILES": "CS(=O)(=O)NCC[C@H](NC(=O)c1cncc2c1cnn2-c1ccc(F)cc1)c1ccnc(S(C)(=O)=O)c1", "target": "CDPK1 (Plasmodium falciparum, UniProt P62344)", "assay": "cell-free assay, competition with immobilised ligand", "conditions": "1 µM", "measurement": "remaining binding", "result": "99%"}
{"SMILES": "CCc1ccccc1C(=O)Nc1n[nH]c2c(C)c(F)c(C3C(C#N)=C(C)N(C)C(C)=C3C#N)cc12", "target": "CRK2 (Plasmodium falciparum, UniProt P61075)", "assay": "cell-free assay, competition with immobilised ligand", "conditions": "1 µM", "measurement": "remaining binding", "result": "100%"}
{"SMILES": "Cc1cc(-n2nc(Cc3cc(F)cc(C(F)(F)F)c3)nc2C)ccc1C(N)=O", "target": "HTR2C (Homo sapiens, UniProt P28335)", "assay": "binding, radioligand binding", "conditions": "10 µM", "measurement": "inhibition", "result": "-5.34%"}
{"SMILES": "O=C(NCc1ncc(C(F)(F)F)cc1Cl)c1ccc2c(c1)C1(CCS(=O)(=O)CC1)[C@H](C1CC1)N2S(=O)(=O)c1ccc(F)cc1", "target": "TLK1 (Homo sapiens, UniProt Q9UKI8)", "assay": "cell-free assay, competition with immobilised ligand", "conditions": "1 µM", "measurement": "remaining binding", "result": "96%"}
{"note": "A few entries again (set 2):"}
{"Compound": "CCC(=O)O[C@H]1CC[C@H]2[C@@H]3CCC4=CC(=O)CC[C@]4(C)[C@H]3CC[C@]12C", "GFP-positive cells [%]": 115}
{"Compound": "COc1ccccc1OCC(O)CO (stereo not shown)", "GFP-positive cells [%]": 94.4}
{"Compound": "NCCCC(N)(C(=O)O)C(F)F (stereo not shown)", "GFP-positive cells [%]": 106}
{"Compound": "CCc1cc2c(cc1N1CCC(N3CCOCC3)CC1)C(C)(C)c1[nH]c3cc(C#N)ccc3c1C2=O", "GFP-positive cells [%]": 116}
{"Compound": "Cc1[nH]cnc1CN1CCc2c(c3ccccc3n2C)C1=O", "GFP-positive cells [%]": 96}
{"Compound": "CC(C)OC(=O)CCC/C=C\\C[C@@H]1[C@@H](CC[C@@H](O)CCc2ccccc2)[C@H](O)C[C@@H]1O", "GFP-positive cells [%]": 136}
{"Compound": "CNCC[C@@H](Oc1ccccc1C)c1ccccc1", "GFP-positive cells [%]": 101}
